Assay results of several laboratories.
Lines come from different studies, so protocols differ. ± marks the error that the study gave. Ends that are not written are not given here. No end group written: not given here. *: point of attachment.
B1: UGT1A9 (Homo sapiens, UniProt O60656); chain GKLLVVPMDGSHWFTMRSVVEKLILRGHEVVVVMPEVSWQLGRSLNCTVKTYSTSYTLEDLDREFKAFAHAQWKAQVRSIYSLLMGSYNDIFDLFFSNCRSLFKDKKLVEYLKESSFDAVFLDPFDNCGLIVAKYFSLPSVVFARGILCHYLEEGAQCPAPLSYVPRILLGFSDAMTFKERVRNHIMHLEEHLLCHRFFKNALEIASEILQTPVTEYDLYSHTSIWLLRTDFVLDYPKPVMPNMIFIGGINCHQGKPLPMEFEAYINASGEHGIVVFSLGSMVSEIPEKKAMAIADALGKIPQTVLWRYTGTRPSNLANNTILVKWLPQNDLLGHPMTRAFITHAGSHGVYESICNGVPMVMMPLFGDQMDNAKRMETKGAGVTLNVLEMTSEDLENALKAVINDKSYKENIMRLSSLHKDRPVEPLDLAVFWVEFVMRHKGAPHLRPAAHDLTWYQYHSLDVIGFLLAVVLTVAFITFKCCAYGYRKCLGKKGRVKKAHKSKTH
B2: enzyme (Bacillus pumilus, UniProt A8FFI9); chain EARSIAWSVDEFFKNREGTFVIQEVKEKSPWVYNKKRAKERFAPQSTFKVANALIGLQTGAVRDEYDIKYWDGVKREIDNWNRDHTLGSGMRDSVVWYYQAMARDIGEERMNHWVKAIHYGNKDISGGIDQFWLSSTLRISPIEQVRFLKQLYEETLPFDLKNMRTVKRMMVQEEEKHATLYGKTGSGSDIGWYVGFIKHEHKTYILATNIKGTGIEAKDITYRILKKYHLMEASV
UniProt Q9UNE7, sequence (whole entry, looked up): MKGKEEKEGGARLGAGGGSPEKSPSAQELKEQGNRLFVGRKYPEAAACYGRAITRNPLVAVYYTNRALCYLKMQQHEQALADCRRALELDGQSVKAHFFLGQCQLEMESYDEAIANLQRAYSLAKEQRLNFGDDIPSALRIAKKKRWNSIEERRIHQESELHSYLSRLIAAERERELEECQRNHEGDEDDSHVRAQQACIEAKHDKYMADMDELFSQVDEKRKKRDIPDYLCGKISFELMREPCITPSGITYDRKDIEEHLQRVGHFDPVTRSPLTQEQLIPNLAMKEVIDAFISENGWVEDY

human Hsc70  koff (STUB1 (Homo sapiens, UniProt Q9UNE7); binder, biolayer interferometry; pH 7.4, 25 °C): 0.006 ± 0.001 s⁻¹
insulin degludec  AUC(0-inf) ratio (ELISA; human severe renal impairment, serum; dose not given, single dose; baseline: impaired over normal renal function): 1.19
B1 (UGT1A9)  Vmax (COc1cccc(-c2oc3ccccc3c(=O)c2O)c1OC; steady-state kinetics; pH 7.4, 37 °C): 0.0044 µmol/min/mg
B2 (enzyme)  kcat/Km (CC1(C)S[C@@H]2[C@H](NC(=O)[C@H](N)c3ccccc3)C(=O)N2[C@H]1C(=O)O; steady-state kinetics; pH 7): 2.1e+06 ± 300000 M⁻¹ s⁻¹
HscB  Vmax (HscA wild type Escherichia coli; ATPase activity, activator; 50-fold molar excess, pH 7.3, 25 °C, added: ATP 1 mM): 0.288 min⁻¹
GSS(Octanoyl)FLSPEHQRVQQRKESKKPPAKLQPR (ghrelin; Octanoyl = CCCCCCCC(=O)*; sequence looked up)  compound share in basal compartment (Calu-3 monolayer, air-liquid interface; peptide; 1 mg/mL apical, 3 h, pH 7.4, 37 °C, with or without HTCC): 0%
KCNTATCATQRLANFLVHSSNNFGAILSSTNVGSNTY (amylin (human); not fully specified (C-terminus, bridges); cysteine pairing not given here; sequence looked up)  lowest toxic concentration (RIN5fm; cell viability, MTT; peptide; 20 h): 1 nM
epidermal growth factor  intact fraction (MDCK; size-exclusion chromatography; 2 h, 37 °C, transcytosed basal to apical): 78%
CC(C)[C@H](NC(=O)[C@@H]1CCCN1C(=O)[C@H](CCCNC(=N)N)NC(=O)[C@H](CS)NC(=O)[C@H](Cc1c[nH]c2ccccc12)NC(=O)[C@H](CCCNC(=N)N)NC(=O)[C@@H](Cc1ccccc1)NC(=O)[C@H](Cc1c[nH]cn1)NC(=O)[C@H](CCC(=O)O)NC(=O)[C@H](CS)NC(=O)[C@H](CS)NC(=O)[C@H](CCCCN)NC(=O)[C@@H]1CC(=O)N[C@@H](CCCNC(=N)N)C(=O)N[C@@H](C)C(=O)N[C@@H](CC(=O)O)C(=O)N[C@H](Cc2ccc(O)cc2)C(=O)N1)C(N)=O [technetium-99m labelled]  tissue uptake (C57 mice, stomach; intravenous, 0.037 MBq, 24 h): 0.51 ± 0.22 %ID/g

A few entries again:
CC(C)[C@H](NC(=O)[C@@H]1CCCN1C(=O)[C@H](CCCNC(=N)N)NC(=O)[C@H](CS)NC(=O)[C@H](Cc1c[nH]c2ccccc12)NC(=O)[C@H](CCCNC(=N)N)NC(=O)[C@@H](Cc1ccccc1)NC(=O)[C@H](Cc1c[nH]cn1)NC(=O)[C@H](CCC(=O)O)NC(=O)[C@H](CS)NC(=O)[C@H](CS)NC(=O)[C@H](CCCCN)NC(=O)[C@@H]1CC(=O)N[C@@H](CCCNC(=N)N)C(=O)N[C@@H](C)C(=O)N[C@@H](CC(=O)O)C(=O)N[C@H](Cc2ccc(O)cc2)C(=O)N1)C(N)=O [technetium-99m labelled]  tissue uptake (C57 mice, stomach; intravenous, 0.037 MBq, 24 h): 0.51 ± 0.22 %ID/g
